Results of several laboratories.
Every numbered part comes from another study and shows a few of its results, in no order.

Sample 1
Target: Replicase polyprotein 1ab, polymerase (rep, Severe acute respiratory syndrome coronavirus 2, UniProt P0DTD1)
Effect on: enzyme activity
Mode: inhibitor
Concentration: 20 µM
SMILES	inhibition [%]
OCCN1CCN(CCCN2c3ccccc3C=Cc3ccccc32)CC1	-3.67
Nc1nc(O)c2ncn(CCC(CO)CO)c2n1	-2.65
Oc1cc2c(c(Cl)c1O)CCNCC2c1ccccc1 (stereo not drawn)	8.51
COc1ccc(-c2csc(NC(=O)[C@H]3CCCCN3S(=O)(=O)c3ccc(C)cc3)n2)cc1	0.53
CC1(C)CC[C@]2(C(=O)O)CC[C@]3(C)[C@H](C(=O)C=C4[C@@]5(C)C=C(C#N)C(=O)C(C)(C)[C@@H]5CC[C@]43C)[C@@H]2C1	1.56
C=CC[N@@+]12CC[C@@]34c5ccccc5N5/C=C6/[C@H]7C[C@H]8[C@@]9(CC[N@@+]8(CC=C)C/C7=C/CO)c7ccccc7N(/C=C(/[C@@H](C[C@@H]31)/C(=C\CO)C2)[C@H]54)[C@@H]69	0.85
N#Cc1ccc2[nH]cc(CCCCN3CCN(c4ccc5oc(C(N)=O)cc5c4)CC3)c2c1	1.54
CCN(CCCOc1ccc2c(Nc3cc(CC(=O)Nc4cccc(F)c4)[nH]n3)ncnc2c1)CCOP(=O)(O)O	8.84
CC(C)c1ccccc1Cc1cc(C(=O)Nc2ccc(S(=O)(=O)c3ccccc3C(C)(C)C)cc2)c(O)c(O)c1O	89.4
CCN(C(C)=O)c1cccc(-c2ccnc3c(C#N)cnn23)c1	-11.7
Cc1ccc2[nH]c(=O)c(C3=NN(C(=O)CCC(=O)O)C(c4ccc(Br)cc4)C3)c(-c3ccccc3)c2c1 (stereo not drawn)	30.7
C[C@@H]1C[C@H]2[C@@H]3C[C@H](F)C4=CC(=O)C=C[C@]4(C)[C@@]3(F)[C@@H](O)C[C@]2(C)[C@@]1(O)C(=O)CO	-2.25
Nc1ccncc1N	-3.48
O=C(Nc1cccc(C(F)(F)F)c1)Nc1ccc(Br)cc1-c1nn[nH]n1	74
CCOC(=O)COc1ccc2c(c1)C[C@@H](NC[C@H](O)c1cccc(Cl)c1)CC2	-1.13
CCCCCCOc1cc2c(cc1N(C)c1ncc(C(=O)O)cn1)C(C)(C)CCC2(C)C	-13.7
CC(C)(O)CC[C@@H](O)[C@](C)(O)[C@H]1CC[C@@]2(O)C3=CC(=O)[C@@H]4C[C@@H](O)[C@@H](O)C[C@]4(C)[C@H]3CC[C@]12C	-4.76
C[C@]12CC[C@H](O)C[C@H]1CC[C@@H]1[C@@H]2CC[C@]2(C)[C@@](O)(c3ccoc3)CC[C@]12O	-7.46
O=C(Nc1nc2ccc(NC(=O)C34C[C@H]5C[C@@H](C3)C[C@@H](C4)C5)cc2s1)c1ccccc1	7.4
Clc1ccc(Cn2c(CN3CCCC3)nc3ccccc32)cc1	3.79
Cc1c(-c2ccc(-c3ccccc3F)cc2)nc2ccc(F)cc2c1C(=O)O	-7.1
O=C(O)CCCCCCCCC(=O)O	1.81
Cc1cc(C)c(S(=O)(=O)Nc2cccc(C(F)(F)F)c2)c(C)c1	-4.01
O=[N+]([O-])c1cccc2cn[nH]c12	-6.21
Cc1c(C(=O)Nc2ccc(N3C[C@@H](C)O[C@@H](C)C3)nc2)cccc1-c1ccc(OC(F)(F)F)cc1	1.06

Sample 2
Organism: SARS-CoV-2
Effect on: cytopathic effect
Cell line: Vero E6
Concentration: 10 µM
Structure (SMILES)	inhibition [%]
c1cnc(SCc2cccnc2)nc1	-4
OC[C@H]1O[C@H]([S-])[C@H](O)[C@@H](O)[C@@H]1O.[Au+]	5.6
O=c1[nH]nc(Sc2ncc([N+](=O)[O-])s2)n1-c1ccc2c(c1)OCCO2	-22.7
c1ccc2sc(SN3CCOCC3)nc2c1	1.9
C[C@@H](CN1CC(=O)NC(=O)C1)N1CC(=O)NC(=O)C1	9.5

Sample 3
Cell line: HEK-293T/ACE2
Concentration: concentration not given
Time: 16 (unit not given)
Relative to: vehicle
SMILES	viability
Nc1cc(N2CCCCC2)nc(N)[n+]1[O-]	99.5%
CC1(C)NC(=O)N(c2ccc([N+](=O)[O-])c(C(F)(F)F)c2)C1=O	98.6%
N#Cc1ccccc1-c1cc(-c2ccccn2)cn(-c2ccccc2)c1=O	100%
CC1=NS(=O)(=O)c2cc(Cl)ccc2N1	100%
C=C1CC[C@@]2(O)[C@H]3Cc4ccc(O)c5c4[C@@]2(CCN3CC2CC2)[C@H]1O5	101%

Sample 4
Target: Ras GTPase-activating protein-binding protein 1, RRM domain (G3BP1, Homo sapiens, UniProt Q13283)
Chain of UniProt Q13283 (whole entry, looked up): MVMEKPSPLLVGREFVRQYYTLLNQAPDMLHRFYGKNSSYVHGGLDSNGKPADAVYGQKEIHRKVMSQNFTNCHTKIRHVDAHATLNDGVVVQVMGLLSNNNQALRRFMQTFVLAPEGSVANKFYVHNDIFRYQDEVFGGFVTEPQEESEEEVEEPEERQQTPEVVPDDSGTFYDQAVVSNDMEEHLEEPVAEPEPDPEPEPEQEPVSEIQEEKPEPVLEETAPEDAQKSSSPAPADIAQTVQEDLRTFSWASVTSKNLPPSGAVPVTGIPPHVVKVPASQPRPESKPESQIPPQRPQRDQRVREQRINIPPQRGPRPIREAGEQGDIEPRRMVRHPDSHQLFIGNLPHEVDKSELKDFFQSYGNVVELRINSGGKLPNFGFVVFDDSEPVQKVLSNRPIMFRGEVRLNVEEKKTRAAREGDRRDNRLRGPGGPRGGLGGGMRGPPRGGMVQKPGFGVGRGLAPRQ
Method: RNA Bind-n-Seq
Molecule type: RNA
Matrix: in vitro
Concentration: 1 µM
Notes: whole 134-nt RNA, ends assumed
Together with: 150 mM KCl
Relative to: input library
Direction: higher = stronger binding
All sequences stand within: GGGAGUUCUACAGUCCGACGAUC … UGGAAUUCUCGGGUGUCAAGG
Sequence	log2 enrichment
AGUCCUGUGCUACACAUCGUAUGUACCGAAUCGGGUUUUUGGGAAAAAGGGAAAGGGAAAGUAUUAUGUUACGCCGUUCGGAUCUGCACU	0.201
AAGUCCUGUGCUACACAUCGUAUGUACCGAAUCGGGUUUGGGUGGGAAAAAAAGGGAAAGUAUUAUGUUACGCCGUUCGGAUCUGCACUU	0.303
UCCUGUGCUACACAUCGUAUGUACCGAAUCGGGGCCCCCGGGCCCCCGGGGCCCCCGGGGAAAGUAUUAUGUUACGCCGUUCGGAUCUGC	-0.8
CACAGACAACACGCACCCACACAGACACAGAGGGAAGGGGUUGGGAUGGGGACAGGGUGCACAGCAGGGCGGGGUAGGAAAACAGCCCCU	-0.151
UGCCUGUAUGGAGUGGAAUGAAUGUUGCUGGUGUCUCUCUGAAGACUCUGCACCCAGAUUUAGGGACUGAUAAAGAUAAGGAACAGUGGA	0.0841
CCUGUGCUACACAUCGUAUGUACCGAAUCGGCCCCCCCGGGGCCCCCCCGGCCCCCCCGGGAAAGUAUUAUGUUACGCCGUUCGGAUCUG	-0.622
AAGUCCUGUGCUACACAUCGUAUGUACCGAAUCGGGUUUGGGAGGGUUUUUUUGGGAAAGUAUUAUGUUACGCCGUUCGGAUCUGCACUU	0.305
UGGGAGGUGGAUUUUGUUUAUUUUUUUAGCUCAUUUCCAGGGGUGGGAAUUUUUUUUUAAUAGGUGUCAUGAAUAAAGUUGUUUUUGAAA	1.53

Sample 5
Target: Histone acetyltransferase KAT6A, both winged helices, GST fusion (KAT6A, Homo sapiens, UniProt Q92794, residues 1-181)
Method: protein binding microarray
Molecule type: double-stranded DNA, one strand shown
Matrix: in vitro
Concentration: not given
Notes: 8-mer, flanks averaged, mean of 2 arrays, mostly near background
Relative to: not given
Direction: higher = stronger binding
Construct (chain): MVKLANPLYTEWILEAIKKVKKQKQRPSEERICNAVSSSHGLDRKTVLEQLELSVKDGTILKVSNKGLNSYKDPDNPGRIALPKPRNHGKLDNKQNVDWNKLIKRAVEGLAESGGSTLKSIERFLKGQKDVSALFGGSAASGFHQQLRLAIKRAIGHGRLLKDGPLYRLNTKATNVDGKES
Sequence	E-score
GTAACCCA	-0.035
AAGACACC	-0.0946
TGGCGGAA	0.108
CCCATTCG	-0.0285
GATGACCA	0.114
CACGCTTC	0.187
ATCCAACG	-0.023
GAGTCTAC	0.00038

For quick reference, copied from above (sample 5):
Sequence	E-score
CCCATTCG	-0.0285
GTAACCCA	-0.035
TGGCGGAA	0.108
GATGACCA	0.114
